# Results pooled from the literature.
# Compare with care: the assays were run in different laboratories. ± marks the error that the study gave.
SMILES,test,system,setting,endpoint,value
CCOc1ccc2nc(NC(=O)c3cc(=O)c4ccc(C)cc4o3)sc2c1,,sheep erythrocytes,"1 h, pH 7.5",maximum haemolysis,1.49%
COc1ccnc(C(=O)NCCO)c1OCOC(=O)C(C)C,,"sterile natural water, irradiated",photolysis product,maximum share of applied radioactivity,12.5 % AR
COC(=O)/C(C#N)=C1\Nc2ccccc2O1,,sheep erythrocytes,"1 h, pH 7.5",maximum haemolysis,3.17%
C[C@H](Cn1cnc2c(N)ncnc21)OCP(=O)(O)O,,"Macaca nemestrina, plasma","intravenous, dose not given, time-averaged",maximum DcNP-dissociated fraction,3.2%
COCCOc1nc(N)c2[nH]c(=O)n(Cc3ccc(C(=O)O)cc3)c2n1,,water,,maximum solubility,~100 µM
Cc1c2oc3c(C)ccc(C(=O)N[C@@H]4C(=O)N[C@H](C(C)C)C(=O)N5CCC[C@H]5C(=O)N(C)CC(=O)N(C)[C@@H](C(C)C)C(=O)O[C@@H]4C)c3nc-2c(C(=O)N[C@@H]2C(=O)N[C@H](C(C)C)C(=O)N3CCC[C@H]3C(=O)N(C)CC(=O)N(C)[C@@H](C(C)C)C(=O)O[C@@H]2C)c(N)c1=O,LC-MS,"children with cancer, plasma","dose not given, 26 h",maximum plasma concentration,4.3 µg/L
Cc1cc(C#N)cc(C)c1Oc1nc(Nc2ccc(C#N)cc2)nc(N)c1Br,solvent-shift UV,FaSSIF with 0.05% PVP-VA,,maximum supersaturated concentration,80 µg/mL
O=C(O)c1cc(Br)ccc1F,,sheep erythrocytes,"1 h, pH 7.5",maximum haemolysis,2.5%
C[C@H]1C=C(Cc2ccccc2)C(=O)O1,,"sterile natural water, irradiated",photolysis product,maximum share of applied radioactivity,69.3 % AR
CC[C@H](C)[C@@H]1NC(=O)[C@H](CCCNC(=N)N)NC(=O)[C@H](CC(=O)O)NC(=O)[C@H](CC(C)C)NC(=O)[C@H](CCCCN)NC(=O)[C@H](CC(C)C)NC(=O)CNC(=O)[C@H](Cc2ccccc2)NC(=O)[C@@H](NC(=O)CNC(=O)[C@H](CCCCN)NC(=O)[C@H](CO)NC(=O)[C@H](CC(C)C)NC(=O)CNC(=O)[C@H](CCCCN)NC(=O)[C@H](CCCCN)NC(=O)[C@H](CC(N)=O)NC(=O)[C@H](C)NC(=O)CNC(=O)[C@H](CCCCN)NC(=O)[C@H](Cc2ccc(O)cc2)NC(=O)[C@H](CCCCN)NC(=O)[C@H](CCCNC(=N)N)NC(=O)[C@H](C)NC(=O)[C@H](CC(N)=O)NC(=O)[C@@H]2CCCN2C(=O)[C@H](Cc2c[nH]cn2)NC(=O)[C@H](CCC(=O)O)NC(=O)[C@H](CCC(N)=O)NC(=O)CNC(=O)[C@@H]2CCCN2)CSSC[C@@H](C(=O)O)NC(=O)CNC(=O)[C@H](CC(C)C)NC(=O)CNC(=O)[C@H](CO)NC(=O)[C@H](CCSC)NC(=O)[C@H](CO)NC(=O)CNC1=O,,human,concentration not given,maximum DBP decrease,-2 mmHg
COC1/C=C/OC2(C)Oc3c(C)c(O)c4c(O)c(c5c(nc6cc(C)ccn65)c4c3C2=O)NC(=O)/C(C)=C\C=C\C(C)C(O)C(C)C(O)C(C)C(OC(C)=O)C1C (stereo not drawn),,sheep erythrocytes,"1 h, pH 7.5",maximum haemolysis,8.8%
C=CC(=O)NC1CCN(c2ncc3ncnc(Nc4ccc(Oc5ccc6c(c5)ncn6C)c(C)c4)c3n2)CC1,,tiny-TIM gastrointestinal model,"30 mg, fed state, high-fat meal",maximum bioaccessibility,51.3 ± 0.3 % recovery
